{"data": "Published values pooled from the literature", "note": "Each line is one published result; not all experiments were run side by side. Numbers after ± are the reported error."}
{"Structure (SMILES)": "COc1ccc2c(c1)C(C)(C)C(/C=C/C1=C(Oc3ccc(C(=O)NCCCCOc4cc(CN(Cc5ccccn5)Cc5ccccn5)cc(CN(Cc5ccccn5)Cc5ccccn5)c4)cc3)C(=C/C=C3/N(CCCCS(=O)(=O)[O-])c4ccc(OC)cc4C3(C)C)CCC1)=[N+]2CCCCS(=O)(=O)[O-].O=[N+]([O-])[O-].O=[N+]([O-])[O-].[99Tc+].[C-]#[O+].[C-]#[O+].[C-]#[O+].[Zn+2]", "test system": "mouse, heart", "setting": "12 h", "tracer uptake": "1.33 %ID/g"}
{"Structure (SMILES)": "CC(C(=O)O)n1nc(Cn2cc3cc(OCC[18F])c(Cl)cc3n2)c2ccccc2c1=O (racemic)", "test system": "rat, heart", "setting": "5 min", "tracer uptake": "0.26 %ID/g"}
{"Structure (SMILES)": "CN(O)C(=O)CCC(=O)NCCCN(CCCCN(CCCNC(=O)CCC(=O)N(C)O)C(=O)CCC(=O)N(C)O)C(=O)CCC(=O)N(C)O.[89Zr]", "test system": "mouse, pancreas", "setting": "1 h", "tracer uptake": "0.29 %ID/g"}
{"Structure (SMILES)": "CN(Cc1ccccc1)C(=O)CN1CCN(CC(=O)[O-])CCN(CC(=O)[O-])CC1.[44Sc+3]", "test system": "mouse, muscle", "setting": "intravenous, 1 h", "tracer uptake": "0.22 %ID/g"}
{"Structure (SMILES)": "[123I]c1ccc2nc(-c3ccc(-n4ccnn4)nc3)cn2c1", "test system": "male Wistar rat, lung", "setting": "intravenous, 4 MBq, 14 h", "tracer uptake": "0.012 %ID/g"}
{"Structure (SMILES)": "CN(Cc1ccccc1)C(=O)CN1CCN(CC(=O)[O-])CCN(Cc2cccc(C(=O)[O-])n2)CC1.[177Lu+3]", "test system": "mouse, muscle", "setting": "intravenous, 1 h", "tracer uptake": "0.18 %ID/g"}
{"Structure (SMILES)": "CN([O-])C(=O)CN1CCN(CC(=O)N(C)[O-])CCN(Cc2ccccn2)CC1.[89Zr+4]", "test system": "mouse, liver", "setting": "intravenous, 4 h", "tracer uptake": "0.41 %ID/g"}
{"Structure (SMILES)": "CN(Cc1ccccc1)C(=O)CN1CCN(CC(=O)[O-])CCN(CC(=O)N(C)Cc2ccccc2)CC1.[18F-].[Sc+3]", "test system": "mouse, kidney", "setting": "intravenous, 1 h", "tracer uptake": "0.43 %ID/g"}
{"Structure (SMILES)": "CC(=O)N([O-])CCCCCNC(=O)CCC(=O)N([O-])CCCCCNC(=O)CCC(=O)N([O-])CCCCCN.[89Zr+4]", "test system": "mouse, fat", "setting": "4 h", "tracer uptake": "0.02 %ID/g"}
{"Structure (SMILES)": "CN([O-])C(=O)CN1CCNCCN(CC(=O)N(C)[O-])CC1.[89Zr+4]", "test system": "mouse, muscle", "setting": "intravenous, 1 h", "tracer uptake": "0.2 %ID/g"}
{"Structure (SMILES)": "O=C([O-])CN1CCN(CC(=O)[O-])CCN(Cc2cccc(C(=O)[O-])n2)CC1.[177Lu+3]", "test system": "mouse, liver", "setting": "intravenous, 1 h", "tracer uptake": "0.72 %ID/g"}
{"Structure (SMILES)": "Cc1nc(N)nc2c1C(=O)N[C@@H](c1ccc(F)cc1-c1cccc(O[11CH3])n1)C2", "test": "ex vivo biodistribution", "test system": "mice, U87 subcutaneous xenograft, stomach", "setting": "60 min post-injection, baseline, vehicle pre-treatment", "tracer uptake": "1.1 ± 1 %ID"}
{"note": "A few entries again:"}
{"Structure (SMILES)": "[123I]c1ccc2nc(-c3ccc(-n4ccnn4)nc3)cn2c1", "test system": "male Wistar rat, lung", "setting": "intravenous, 4 MBq, 14 h", "tracer uptake": "0.012 %ID/g"}
